Experimental data collected from several papers.
Each numbered part is a random draw from the data of one study; scales do not carry over between parts. Changes are numbered by the printed parent chain.

Set 1 — method: protein binding microarray; form: double-stranded DNA, one strand shown; sample: in vitro; tested at: not given; baseline: not given; direction: higher = stronger binding
Target: Histone acetyltransferase KAT6A, winged helix 1, GST fusion (KAT6A, Homo sapiens, UniProt Q92794, residues 1-85)
Notes: 8-mer, flanks averaged, mean of 2 arrays, mostly near background
Construct (chain): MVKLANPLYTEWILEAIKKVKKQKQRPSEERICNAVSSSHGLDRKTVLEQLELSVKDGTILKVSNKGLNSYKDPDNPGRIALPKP
For `CCATTGAC`, the E-score was -0.0415.
The E-score of `CAGCAAGA` is reported as -0.185.
`ACCTCTAG` has an E-score of -0.0512.
`GCCCGGAA` has an E-score of 0.135.
`ACAAACTC` has an E-score of -0.127.
`TCCGTAAA` gave an E-score of 0.141.
For `CAAACCGC`, the E-score was 0.167.
`AGACATAA` gave an E-score of -0.0274.
`ATGAACAG` gave an E-score of -0.208.
For `ATTATTAC`, the E-score was 0.0899.
`CTCCGTGA` has an E-score of 0.154.
`ATTCGGCA` gave an E-score of 0.145.
The E-score of `CATACCCC` is reported as -0.0193.
With `ACTCCACG` the E-score was 0.042.
With `CTCTTCGC` the E-score was -0.027.
`AAAAGTTA` has an E-score of -0.0294.
With `GATGTTCC` the E-score was -0.0596.
`ATCTACTG` gave an E-score of -0.106.
The E-score of `AGCCCACG` is reported as -0.121.
`ACGCCTTC` has an E-score of 0.0328.
`CAATCGTA` gave an E-score of -0.125.
The E-score of `AACGAATT` is reported as -0.201.
`CGGGGGAA` gave an E-score of 0.253.
With `GCTGTACC` the E-score was 0.152.

Set 2 — target: CCND2, cyclin fold, Cln2 fusion (human); method: yeast growth competition, sequencing; sample: yeast; notes: weak parent motif; baseline: not given; direction: higher = stronger binding
Starting sequence: MASTL docking peptide (human); PMIAKNLMCELDE
For `M8S`, “normalised enrichment score” read 0.118.
`M8L`: “normalised enrichment score” 0.216.
`M2T`: “normalised enrichment score” -0.0579.
For `L11I`, “normalised enrichment score” read 0.0894.
`L11R`: “normalised enrichment score” -0.148.
`A4E` — result for “normalised enrichment score”: 0.0792.
For `N6M`, “normalised enrichment score” read 0.224.
For `A4M`, “normalised enrichment score” read 0.00156.
`L11K`: “normalised enrichment score” -0.132.
`N6W`: “normalised enrichment score” 0.0603.
`M2V` — result for “normalised enrichment score”: -0.0971.
`M8T`: “normalised enrichment score” -0.00658.
For `A4P`, “normalised enrichment score” read 0.146.
Under “normalised enrichment score”, `A4T` is recorded as 0.065.
`C9D` — result for “normalised enrichment score”: -0.147.
`C9K` — result for “normalised enrichment score”: -0.126.
`K5Y` — result for “normalised enrichment score”: 0.0132.
For `L7Y`, “normalised enrichment score” read 0.653.
`L11N`: “normalised enrichment score” 0.331.

Set 3 — method: RNA Bind-n-Seq; form: RNA; sample: in vitro; tested at: 200 nM; notes: whole 134-nt RNA, ends assumed; added: 150 mM KCl; baseline: input library; direction: higher = stronger binding
Target: Ras GTPase-activating protein-binding protein 1, full length (G3BP1, Homo sapiens, UniProt Q13283)
UniProt Q13283, sequence (whole entry, looked up): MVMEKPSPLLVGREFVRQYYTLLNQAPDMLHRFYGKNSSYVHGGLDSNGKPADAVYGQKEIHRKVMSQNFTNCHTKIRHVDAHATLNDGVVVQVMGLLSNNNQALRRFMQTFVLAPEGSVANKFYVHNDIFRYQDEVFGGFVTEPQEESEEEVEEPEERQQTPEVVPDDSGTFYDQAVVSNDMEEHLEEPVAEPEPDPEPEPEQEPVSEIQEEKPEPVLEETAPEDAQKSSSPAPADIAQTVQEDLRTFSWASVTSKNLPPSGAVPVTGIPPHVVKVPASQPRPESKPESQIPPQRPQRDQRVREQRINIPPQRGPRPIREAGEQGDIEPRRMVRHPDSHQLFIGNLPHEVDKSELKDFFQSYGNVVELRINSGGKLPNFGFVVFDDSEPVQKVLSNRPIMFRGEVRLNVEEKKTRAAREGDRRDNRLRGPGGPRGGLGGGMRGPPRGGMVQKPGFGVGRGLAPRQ
`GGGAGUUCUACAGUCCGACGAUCUCCUGUGCUACACAUCGUAUGUACCGAAUCAAACCCCCAAAUUUUUUUAAACCCCCAAAAAAGUAUUAUGUUACGCCGUUCGGAUCUGCAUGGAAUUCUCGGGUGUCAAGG` has a log2 enrichment of -0.271.
`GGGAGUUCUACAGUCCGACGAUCAAGUCCUGUGCUACACAUCGUAUGUACCGAAUCAAAUUUAAAUUUAAACCCCCAAAAAAGUAUUAUGUUACGCCGUUCGGAUCUGCACUUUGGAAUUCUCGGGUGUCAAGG` has a log2 enrichment of -0.277.
With `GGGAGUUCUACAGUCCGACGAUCUCAAGUCCUGUGCUACACAUCGUAUGUACCGAAUCGGUUUGGGGUUUGGGUUUGGAAAGUAUUAUGUUACGCCGUUCGGAUCUGCACUUCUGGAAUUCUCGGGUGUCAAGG` the log2 enrichment was -0.695.
The log2 enrichment of `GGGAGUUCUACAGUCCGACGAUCCCUGUGCUACACAUCGUAUGUACCGAAUCGGGGAAAAAAGGGGAAAAAAGGAAAAAAGGGGAAAGUAUUAUGUUACGCCGUUCGGAUCUGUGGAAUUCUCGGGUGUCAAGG` is reported as -0.34.
The log2 enrichment of `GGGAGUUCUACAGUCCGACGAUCCACAGACAACACGCACCCACACCGACACAGAGGGAAGGGGUUGGGAUGGGGACAGGGUGCACAGCAGGGCGGGGUAGGACCCCAGCCCCUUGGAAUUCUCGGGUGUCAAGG` is reported as 2.02.
For `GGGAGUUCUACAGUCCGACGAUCUCCUGUGCUACACAUCGUAUGUACCGAAUCGGGGUUUUUUUGGGGAAAAAGGGGAGGGGAAAGUAUUAUGUUACGCCGUUCGGAUCUGCAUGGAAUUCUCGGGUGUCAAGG`, the log2 enrichment was 0.746.
With `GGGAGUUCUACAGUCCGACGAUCAGUCCUGUGCUACACAUCGUAUGUACCGAAUCGGGUUUUGGGGUUUUGGGUUUUGGGAAAGUAUUAUGUUACGCCGUUCGGAUCUGCACUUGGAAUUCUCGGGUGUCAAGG` the log2 enrichment was -0.117.
For `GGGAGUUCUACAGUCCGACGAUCACCAUGCAGGUGGGCAUCUUUGGGAAGUGGGGCGAGGGGGGGAUAGGGAGGGGGGUAACACUUUGGGAACAGGUGGUCCCAGGUCGUUUCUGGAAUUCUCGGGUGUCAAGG`, the log2 enrichment was 1.48.
`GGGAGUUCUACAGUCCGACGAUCAGUCCUGUGCUACACAUCGUAUGUACCGAAUCGGGAAAAGGGGAAAAGGGGAAAAGGGAAAGUAUUAUGUUACGCCGUUCGGAUCUGCACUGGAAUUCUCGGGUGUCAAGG` has a log2 enrichment of -0.0445.

Mixed results
`PhoQ, residues 284 288 289 292 302 303 SNGLAW` gave a fold induction of 7.39 (PhoP, residues 12 14 15 18 19 VQALL (Escherichia coli, UniProt P23836); Sort-seq, item: YFP reporter; E. coli; PhoQ-PhoP variant library, added: 10 µM Mg2+; baseline: high Mg2+ state, higher = stronger signaling).

Repeated from above (set 3):
The log2 enrichment of `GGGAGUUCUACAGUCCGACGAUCCACAGACAACACGCACCCACACCGACACAGAGGGAAGGGGUUGGGAUGGGGACAGGGUGCACAGCAGGGCGGGGUAGGACCCCAGCCCCUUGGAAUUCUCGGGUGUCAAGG` is reported as 2.02.
`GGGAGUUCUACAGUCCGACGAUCUCCUGUGCUACACAUCGUAUGUACCGAAUCAAACCCCCAAAUUUUUUUAAACCCCCAAAAAAGUAUUAUGUUACGCCGUUCGGAUCUGCAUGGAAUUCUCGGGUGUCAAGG` has a log2 enrichment of -0.271.
With `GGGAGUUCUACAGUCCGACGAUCAGUCCUGUGCUACACAUCGUAUGUACCGAAUCGGGUUUUGGGGUUUUGGGUUUUGGGAAAGUAUUAUGUUACGCCGUUCGGAUCUGCACUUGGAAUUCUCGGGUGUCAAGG` the log2 enrichment was -0.117.
The log2 enrichment of `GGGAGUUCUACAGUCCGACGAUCCCUGUGCUACACAUCGUAUGUACCGAAUCGGGGAAAAAAGGGGAAAAAAGGAAAAAAGGGGAAAGUAUUAUGUUACGCCGUUCGGAUCUGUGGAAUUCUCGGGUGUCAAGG` is reported as -0.34.
